Earlier results, collected from citations in different studies.
Compare with care: the assays were run in different laboratories. Values after ≈ are worked out from the molar mass of the structure shown.
Sequence of UniProt Q9UHD2 (whole entry, looked up): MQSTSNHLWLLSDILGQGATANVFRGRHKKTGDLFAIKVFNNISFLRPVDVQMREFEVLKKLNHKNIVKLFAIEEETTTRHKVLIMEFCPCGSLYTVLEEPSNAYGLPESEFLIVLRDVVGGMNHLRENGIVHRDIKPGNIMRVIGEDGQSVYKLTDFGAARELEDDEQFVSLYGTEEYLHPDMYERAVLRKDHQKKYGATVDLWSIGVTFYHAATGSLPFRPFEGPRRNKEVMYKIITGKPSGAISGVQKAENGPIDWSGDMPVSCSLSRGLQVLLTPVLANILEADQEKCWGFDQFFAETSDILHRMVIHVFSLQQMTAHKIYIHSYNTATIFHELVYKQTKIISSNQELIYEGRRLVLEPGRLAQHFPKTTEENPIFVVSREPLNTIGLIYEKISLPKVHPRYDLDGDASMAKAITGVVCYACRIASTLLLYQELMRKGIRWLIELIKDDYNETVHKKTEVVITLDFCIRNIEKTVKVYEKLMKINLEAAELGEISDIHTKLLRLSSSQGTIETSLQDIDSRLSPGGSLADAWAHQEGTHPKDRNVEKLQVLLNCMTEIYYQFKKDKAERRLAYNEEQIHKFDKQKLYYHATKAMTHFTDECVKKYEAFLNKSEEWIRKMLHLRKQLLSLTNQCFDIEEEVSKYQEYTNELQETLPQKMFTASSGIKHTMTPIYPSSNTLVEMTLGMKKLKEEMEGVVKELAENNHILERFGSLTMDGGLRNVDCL

`Nc1cc(C(F)(F)F)c(-c2nc(N3CCOCC3)nc(N3CCOCC3)n2)cn1` gave a remaining activity of 76% (TBK1 (Homo sapiens, UniProt Q9UHD2); enzyme activity; 10 µM; relative to: untreated).
With `Cc1[nH]c(C)c(-c2ccc(-c3ccc(OC(F)(F)F)cc3)cc2)c(=O)c1Cl` the IC50 was 40 nM (Plasmodium falciparum; whole cell extended time; 3D7; 72 h).
`O=C(C1CCCCC1)N1CC(=O)N2CCc3ccccc3C2C1` (stereo not drawn): “worm burden reduction” “inactive” (Schistosoma mansoni; juvenile, infected mice; dose not given).
For `Cc1cnc(N2CC3(CCOCC3)C2)c(C(=O)Nc2ccc(C(=O)N3CCc4cc(C(=O)Nc5c(C)cccc5F)sc4-c4ccccc43)cc2)c1`, the IC50 was 0.000354 µg/mL (respiratory syncytial virus; cytopathic effect; A2).
`C=C[C@]1(C)C[C@@H](OC(=O)CSC(C)(C)CNC(=O)[C@H](N)C(C)C)[C@]2(C)[C@H](C)CC[C@]3(CCC(=O)[C@H]32)[C@@H](C)[C@@H]1O` gave a target AUC24h/MIC of 56300 h (Mycoplasma gallisepticum; chickens; dose not given).
`Cc1[nH]c(C)c(-c2ccc(C#Cc3ccc(F)cc3F)cc2)c(=O)c1Br` gave an IC50 of 30 nM (Plasmodium falciparum; whole cell extended time; 3D7; 72 h).
`CC1CS(=O)(=O)CCN1/N=C/c1ccc([N+](=O)[O-])o1` (stereo not drawn) has an IC50 of 2800 nM (Trypanosoma cruzi; L6E9 rat myoblasts, amastigote).
Under “worm burden reduction”, `O=C(C1CCCCC1)N1CC(=O)N2CCc3ccccc3C2C1` (stereo not drawn) is recorded as 95 to 100% (Schistosoma mansoni; infected mice; 400 mg/kg; relative to: untreated).
`CC1(C)S[C@@H]2[C@H](NC(=O)[C@H](N)c3ccccc3)C(=O)N2[C@H]1C(=O)O` gave an MIC of over 16 µg/mL (Acinetobacter baumannii; clinical isolate RKI-No_4/15).
`[N-]=[N+]=N[C@]1(CO)O[C@@H](n2ccc(N)nc2=O)[C@@H](F)[C@@H]1O` gave an EC50 of 340 to 6900 nM (HIV-1; viral replication; PBMC).
`Oc1ccc(-c2nc(-c3ccc(OC4CCCC4)cc3)no2)cc1` gave an MIC of over 128 µg/mL (Enterobacter aerogenes; ATCC 35029).
`Oc1ccc(-c2nc(-c3ccc(OC4CCCC4)cc3)no2)cc1` has an MIC of over 128 µg/mL (Lactobacillus gasseri; HM-644).
`Cc1cc(C)c2cc(CNCCCNc3nc4ccccc4[nH]3)[nH]c2c1` gave an IC50 of 770 nM (Plasmodium falciparum; whole cell extended time; 3D7; 72 h).
`CC(C)C[C@@H](C=O)NC(=O)[C@H](CC(C)C)NC(=O)[C@H](CC(C)C)NC(=O)OCc1ccccc1` — result for “reduction in infected mice”: 96% (Schistosoma mansoni; mouse; dose not given).
With `Cc1ccc2[nH]c3ccccc3c(=O)c2c1` the IC50 was 860 nM (Plasmodium falciparum; whole cell extended time; 3D7; 72 h).
The GI50 of `C[C@H]1COCCN1c1nc(-c2cnc(N)cc2C(F)F)nc(N2CCOCC2)n1` is reported as 477 nM (J82).
The MIC of `CNC(C)C1CCC(N)C(OC2C(N)CC(N)C(OC3OCC(C)(O)C(NC)C3O)C2O)O1` (stereo not drawn) is reported as 2 µg/mL (≈ 4.19 µM) (Acinetobacter baumannii; clinical isolate RKI-No_4/15).
`CC(C)N(Cc1cnc2nc(N)nc(N)c2n1)c1ccc(Cl)c(Cl)c1` has an IC50 of 160 nM (Plasmodium falciparum; whole cell extended time; 3D7; 72 h).

For quick reference, copied from above:
`Cc1[nH]c(C)c(-c2ccc(C#Cc3ccc(F)cc3F)cc2)c(=O)c1Br` gave an IC50 of 30 nM (Plasmodium falciparum; whole cell extended time; 3D7; 72 h).
`CC1CS(=O)(=O)CCN1/N=C/c1ccc([N+](=O)[O-])o1` (stereo not drawn) has an IC50 of 2800 nM (Trypanosoma cruzi; L6E9 rat myoblasts, amastigote).
Under “worm burden reduction”, `O=C(C1CCCCC1)N1CC(=O)N2CCc3ccccc3C2C1` (stereo not drawn) is recorded as 95 to 100% (Schistosoma mansoni; infected mice; 400 mg/kg; relative to: untreated).
